{"data": "Values quoted from earlier work, collected from citations in different studies", "note": "Numbers after ± are the reported error."}
{"Compound": "CCC(C(=O)Nc1sc(C(N)=O)c(C)c1C(=O)OC)c1ccccc1 (centres unmarked)", "target or system": "vaccinia virus DNA polymerase", "assay": "processive DNA synthesis, inhibitor", "measurement": "IC50", "value": "13.4 µM"}
{"Compound": "CCN(CCO)CCCC(C)Nc1ccnc2cc(Cl)ccc12 (centres unmarked)", "target or system": "MERS-CoV", "assay": "viral replication, ELISA", "test system": "Vero E6", "measurement": "EC50", "value": "8.28 µM"}
{"Compound": "C[C@@H]1CCO[C@H]2Cn3cc(C(=O)NCc4ccc(F)cc4F)c(=O)c(O)c3C(=O)N12", "target or system": "HIV-1", "assay": "viral replication", "test system": "integrase Y143R mutant", "measurement": "EC50", "value": "0.0043 ± 0.0012 µM"}
{"Compound": "O=c1[nH]c2ccccc2n1C1CCN(CCCC(c2ccc(F)cc2)c2ccc(F)cc2)CC1", "target or system": "Ebola virus", "assay": "viral replication, eGFP reporter virus", "test system": "Vero E6", "measurement": "IC50", "value": "3.12 µM"}
{"Compound": "CC(C)(C)[C@H](NC(=O)C(F)(F)F)C(=O)N1C[C@H]2[C@@H]([C@H]1C(=O)N[C@H](C#N)C[C@@H]1CCNC1=O)C2(C)C", "target or system": "SARS-CoV-2", "assay": "viral replication", "test system": "Calu-3", "measurement": "EC50", "value": "1.9 ± 0.8 µM"}
{"Compound": "O=c1c(O)c(-c2ccc(O)c(O)c2)oc2cc(O)cc(O)c12", "target or system": "pseudorabies virus", "assay": "viral replication", "measurement": "IC50", "value": "0.79 µg/mL"}
{"Compound": "O=C(/C=C/c1ccc(O)c2oc(-c3ccc(O)c(O)c3)cc12)O[C@H](Cc1ccc(O)c(O)c1)C(=O)O", "target or system": "SARS-CoV-2", "assay": "viral replication", "measurement": "EC50", "value": "3.41 µM"}
{"Compound": "CN1Cc2ccccc2[C@@H]2c3cccc4[nH]cc(c34)C[C@H]21", "target or system": "SARS-CoV-2", "assay": "cytopathic effect", "test system": "Caco-2", "setting": "10 µM", "measurement": "inhibition", "value": "-8%"}
{"note": "Excerpt of the above:"}
{"Compound": "CCN(CCO)CCCC(C)Nc1ccnc2cc(Cl)ccc12 (centres unmarked)", "target or system": "MERS-CoV", "assay": "viral replication, ELISA", "test system": "Vero E6", "measurement": "EC50", "value": "8.28 µM"}
